Published values from different studies.
Lines come from different studies, so protocols differ. ± marks the error that the study gave.

O=[N+]([O-])c1ccc(N2CCN(CCC(O)c3ccc(F)cc3)CC2)c(C(F)(F)F)c1 (stereo not shown) — induction factor (Salmonella typhimurium; genotoxicity, SOS/umu test; TA1535/pSK1002; 0.004 mg/mL, 4 h, without S9, lower range): 0.7
CC1(F)CN(C(=O)Cn2c(=O)c(C(=O)NCc3ccc(Cl)cc3)cc3nc(N4CCNC4=O)cnc32)C1 — selectivity ratio (human cytomegalovirus; MRC-5, AD169-GFP; relative to: CC50 over EC50): > 184
[Cl-].[Cl-].[Pt+2].[Ru+2].c1ccc(-c2nccnc2-c2ccccn2)nc1.c1cnc2c(c1)ccc1cccnc12.c1cnc2c(c1)ccc1cccnc12 — survival rate (Danio rerio; embryos; 60 µM, 0 h): 100%
Cc1cc(C(=O)NC(C)(C)COc2cccc3c2C(N)=NS(=O)(=O)N3)cc(C)n1 — revertant ratio (Salmonella typhimurium; Ames test, initial; TA100; 15.0 µg/plate; relative to: solvent control): 1.1
COc1cccc(-c2n[nH]c(SCc3ccccn3)n2)c1OC — revertant colonies per plate (Salmonella typhimurium; Ames test, preincubation; TA1537; 1.0 mg/plate, without S9): 6
CC(=O)N1CCC(C(=O)N2CCN3C(=O)c4cc(-c5ccccc5)ccc4NC(=O)C3C2)CC1 (stereo not shown) — revertants per plate (Escherichia coli; WP2 uvrA; 500 µg/plate, without S9): 20.5
O=[N+]([O-])c1ccc(N2CCC(NCCC(O)c3ccc(F)c4ccccc34)CC2)c(C(F)(F)F)c1 (stereo not shown) — survival (Salmonella typhimurium; SOS/umu test; TA1535/pSK1002; 0.001 mg/mL, 4 h, without S9 activation): 57%
[Cl-].[Cl-].[Pt+2].[Ru+2].c1ccc(-c2nc3cc4ccccc4cc3nc2-c2ccccn2)nc1.c1cnc2c(c1)ccc1cccnc12.c1cnc2c(c1)ccc1cccnc12 — survival rate (Danio rerio; embryos; 60 µM, 0 h): 100%
OC(CCN1CC=C(c2ccc(F)cc2)CC1)c1ccc(F)c2ccccc12 (stereo not shown) — survival (Salmonella typhimurium; SOS/umu test; TA1535/pSK1002; 0.002 mg/mL, 4 h, with S9, full range): 99.3%
[Cl-].[Cl-].[Pt+2].[Ru+2].c1ccc(-c2nc3ccccc3nc2-c2ccccn2)nc1.c1cnc2c(c1)ccc1cccnc12.c1cnc2c(c1)ccc1cccnc12 — survival rate (Danio rerio; embryos; 30 µM, 12 h): 93.3 ± 2.4%

Repeated from above:
O=[N+]([O-])c1ccc(N2CCC(NCCC(O)c3ccc(F)c4ccccc34)CC2)c(C(F)(F)F)c1 (stereo not shown) — survival (Salmonella typhimurium; SOS/umu test; TA1535/pSK1002; 0.001 mg/mL, 4 h, without S9 activation): 57%
